Assay results of several laboratories.
Every numbered part comes from another study and shows a few of its results, in no order. “And” joins repeats or separate records; there may be more than shown.
Chain of UniProt Q56UN5 (whole entry, looked up): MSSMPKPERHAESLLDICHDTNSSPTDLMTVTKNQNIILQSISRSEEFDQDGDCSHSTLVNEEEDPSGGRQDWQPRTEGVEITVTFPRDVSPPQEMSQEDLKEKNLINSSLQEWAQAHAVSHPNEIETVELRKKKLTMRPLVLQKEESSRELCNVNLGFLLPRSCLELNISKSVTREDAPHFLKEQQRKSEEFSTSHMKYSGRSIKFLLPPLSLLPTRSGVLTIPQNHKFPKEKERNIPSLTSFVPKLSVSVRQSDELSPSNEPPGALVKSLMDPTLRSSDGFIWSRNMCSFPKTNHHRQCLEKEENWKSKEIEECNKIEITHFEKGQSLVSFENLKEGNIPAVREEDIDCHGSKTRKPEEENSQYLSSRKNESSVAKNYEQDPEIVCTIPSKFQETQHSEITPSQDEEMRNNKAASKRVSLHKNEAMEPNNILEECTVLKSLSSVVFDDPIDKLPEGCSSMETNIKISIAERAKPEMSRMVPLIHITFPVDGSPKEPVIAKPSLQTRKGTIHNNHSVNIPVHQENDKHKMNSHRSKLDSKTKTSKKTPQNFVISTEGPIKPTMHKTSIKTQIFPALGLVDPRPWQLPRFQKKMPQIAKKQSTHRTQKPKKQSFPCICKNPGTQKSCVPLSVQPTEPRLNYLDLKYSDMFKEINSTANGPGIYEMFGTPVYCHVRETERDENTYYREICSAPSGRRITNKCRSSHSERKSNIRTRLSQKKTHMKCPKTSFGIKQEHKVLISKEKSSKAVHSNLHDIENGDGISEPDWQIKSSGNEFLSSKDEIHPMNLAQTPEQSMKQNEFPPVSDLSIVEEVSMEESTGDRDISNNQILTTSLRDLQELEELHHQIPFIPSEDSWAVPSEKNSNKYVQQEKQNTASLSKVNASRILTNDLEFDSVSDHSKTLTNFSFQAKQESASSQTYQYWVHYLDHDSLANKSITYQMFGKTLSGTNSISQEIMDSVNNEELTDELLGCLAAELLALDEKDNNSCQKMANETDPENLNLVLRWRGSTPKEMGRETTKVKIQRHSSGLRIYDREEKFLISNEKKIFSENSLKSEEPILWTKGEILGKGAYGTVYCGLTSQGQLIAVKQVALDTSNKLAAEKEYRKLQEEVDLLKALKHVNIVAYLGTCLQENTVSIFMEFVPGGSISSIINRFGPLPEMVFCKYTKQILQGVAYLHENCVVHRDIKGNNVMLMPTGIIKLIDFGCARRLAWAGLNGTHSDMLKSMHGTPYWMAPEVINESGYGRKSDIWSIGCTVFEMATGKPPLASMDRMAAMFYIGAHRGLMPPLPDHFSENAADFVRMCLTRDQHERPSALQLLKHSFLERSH
Chain of UniProt Q9H2X6 (whole entry, looked up): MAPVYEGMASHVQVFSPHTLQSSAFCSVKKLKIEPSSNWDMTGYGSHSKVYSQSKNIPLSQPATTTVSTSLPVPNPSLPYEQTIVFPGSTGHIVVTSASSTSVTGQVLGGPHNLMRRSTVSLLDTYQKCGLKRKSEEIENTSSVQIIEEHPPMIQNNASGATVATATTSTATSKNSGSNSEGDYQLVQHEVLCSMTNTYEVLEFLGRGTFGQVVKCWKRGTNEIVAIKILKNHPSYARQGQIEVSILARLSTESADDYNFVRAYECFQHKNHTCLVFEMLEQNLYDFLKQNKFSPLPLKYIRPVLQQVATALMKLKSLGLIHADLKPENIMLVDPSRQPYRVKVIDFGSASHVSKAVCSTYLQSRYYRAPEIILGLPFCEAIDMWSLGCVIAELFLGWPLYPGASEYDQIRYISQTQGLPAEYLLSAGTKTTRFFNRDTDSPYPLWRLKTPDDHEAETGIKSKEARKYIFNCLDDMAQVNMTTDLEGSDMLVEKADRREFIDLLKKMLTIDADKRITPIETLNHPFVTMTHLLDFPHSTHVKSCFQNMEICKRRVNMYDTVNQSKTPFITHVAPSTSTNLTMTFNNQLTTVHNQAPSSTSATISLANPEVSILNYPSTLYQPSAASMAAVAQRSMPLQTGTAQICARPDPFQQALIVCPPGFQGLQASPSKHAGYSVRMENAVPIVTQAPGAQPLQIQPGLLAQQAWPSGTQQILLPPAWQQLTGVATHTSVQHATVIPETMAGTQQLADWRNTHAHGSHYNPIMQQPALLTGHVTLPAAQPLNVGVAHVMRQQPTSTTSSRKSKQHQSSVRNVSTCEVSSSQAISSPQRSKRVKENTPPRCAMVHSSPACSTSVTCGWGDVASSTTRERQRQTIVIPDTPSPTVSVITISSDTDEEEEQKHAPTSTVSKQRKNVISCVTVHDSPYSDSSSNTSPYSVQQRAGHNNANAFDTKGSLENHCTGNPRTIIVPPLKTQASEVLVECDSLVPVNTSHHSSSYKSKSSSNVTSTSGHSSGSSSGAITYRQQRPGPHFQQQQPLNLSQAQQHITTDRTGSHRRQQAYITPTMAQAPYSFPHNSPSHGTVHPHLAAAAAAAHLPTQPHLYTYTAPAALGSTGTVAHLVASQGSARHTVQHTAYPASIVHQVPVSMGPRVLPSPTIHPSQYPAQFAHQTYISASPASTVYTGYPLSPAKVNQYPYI
Chain of UniProt P36896 (whole entry, looked up): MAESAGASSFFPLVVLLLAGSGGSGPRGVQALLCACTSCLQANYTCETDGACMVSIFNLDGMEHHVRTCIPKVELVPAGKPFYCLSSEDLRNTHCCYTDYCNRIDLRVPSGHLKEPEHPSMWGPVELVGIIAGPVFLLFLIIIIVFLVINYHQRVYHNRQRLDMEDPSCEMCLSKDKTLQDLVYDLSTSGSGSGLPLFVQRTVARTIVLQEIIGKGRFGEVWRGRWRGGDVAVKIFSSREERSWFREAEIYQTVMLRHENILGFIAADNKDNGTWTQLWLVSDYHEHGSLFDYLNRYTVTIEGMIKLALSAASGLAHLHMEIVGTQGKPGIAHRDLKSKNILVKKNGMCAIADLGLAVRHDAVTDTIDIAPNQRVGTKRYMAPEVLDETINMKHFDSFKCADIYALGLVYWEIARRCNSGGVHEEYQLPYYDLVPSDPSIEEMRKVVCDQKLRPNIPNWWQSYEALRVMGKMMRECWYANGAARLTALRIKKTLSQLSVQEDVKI
Chain of UniProt P22455 (whole entry, looked up): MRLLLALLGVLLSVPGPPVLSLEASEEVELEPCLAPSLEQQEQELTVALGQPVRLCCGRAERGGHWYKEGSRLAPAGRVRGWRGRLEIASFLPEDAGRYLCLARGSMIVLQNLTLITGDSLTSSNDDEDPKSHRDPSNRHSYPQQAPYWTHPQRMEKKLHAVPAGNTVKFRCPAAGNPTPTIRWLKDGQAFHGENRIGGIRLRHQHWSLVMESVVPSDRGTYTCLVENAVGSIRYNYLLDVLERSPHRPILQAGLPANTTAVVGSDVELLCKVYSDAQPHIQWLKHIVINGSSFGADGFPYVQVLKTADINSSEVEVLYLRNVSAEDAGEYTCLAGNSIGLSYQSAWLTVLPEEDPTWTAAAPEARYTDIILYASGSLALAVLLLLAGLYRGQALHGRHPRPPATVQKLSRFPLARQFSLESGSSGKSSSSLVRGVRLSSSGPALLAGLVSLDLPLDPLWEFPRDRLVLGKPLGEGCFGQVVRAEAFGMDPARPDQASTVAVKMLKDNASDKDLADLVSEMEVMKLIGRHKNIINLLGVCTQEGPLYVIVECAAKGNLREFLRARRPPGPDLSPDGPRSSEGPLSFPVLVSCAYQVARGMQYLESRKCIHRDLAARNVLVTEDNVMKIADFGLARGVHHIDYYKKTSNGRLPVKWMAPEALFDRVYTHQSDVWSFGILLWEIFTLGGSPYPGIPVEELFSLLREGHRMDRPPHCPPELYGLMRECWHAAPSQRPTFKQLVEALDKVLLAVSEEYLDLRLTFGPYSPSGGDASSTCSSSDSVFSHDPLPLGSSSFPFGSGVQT
Chain of UniProt P35590 (whole entry, looked up): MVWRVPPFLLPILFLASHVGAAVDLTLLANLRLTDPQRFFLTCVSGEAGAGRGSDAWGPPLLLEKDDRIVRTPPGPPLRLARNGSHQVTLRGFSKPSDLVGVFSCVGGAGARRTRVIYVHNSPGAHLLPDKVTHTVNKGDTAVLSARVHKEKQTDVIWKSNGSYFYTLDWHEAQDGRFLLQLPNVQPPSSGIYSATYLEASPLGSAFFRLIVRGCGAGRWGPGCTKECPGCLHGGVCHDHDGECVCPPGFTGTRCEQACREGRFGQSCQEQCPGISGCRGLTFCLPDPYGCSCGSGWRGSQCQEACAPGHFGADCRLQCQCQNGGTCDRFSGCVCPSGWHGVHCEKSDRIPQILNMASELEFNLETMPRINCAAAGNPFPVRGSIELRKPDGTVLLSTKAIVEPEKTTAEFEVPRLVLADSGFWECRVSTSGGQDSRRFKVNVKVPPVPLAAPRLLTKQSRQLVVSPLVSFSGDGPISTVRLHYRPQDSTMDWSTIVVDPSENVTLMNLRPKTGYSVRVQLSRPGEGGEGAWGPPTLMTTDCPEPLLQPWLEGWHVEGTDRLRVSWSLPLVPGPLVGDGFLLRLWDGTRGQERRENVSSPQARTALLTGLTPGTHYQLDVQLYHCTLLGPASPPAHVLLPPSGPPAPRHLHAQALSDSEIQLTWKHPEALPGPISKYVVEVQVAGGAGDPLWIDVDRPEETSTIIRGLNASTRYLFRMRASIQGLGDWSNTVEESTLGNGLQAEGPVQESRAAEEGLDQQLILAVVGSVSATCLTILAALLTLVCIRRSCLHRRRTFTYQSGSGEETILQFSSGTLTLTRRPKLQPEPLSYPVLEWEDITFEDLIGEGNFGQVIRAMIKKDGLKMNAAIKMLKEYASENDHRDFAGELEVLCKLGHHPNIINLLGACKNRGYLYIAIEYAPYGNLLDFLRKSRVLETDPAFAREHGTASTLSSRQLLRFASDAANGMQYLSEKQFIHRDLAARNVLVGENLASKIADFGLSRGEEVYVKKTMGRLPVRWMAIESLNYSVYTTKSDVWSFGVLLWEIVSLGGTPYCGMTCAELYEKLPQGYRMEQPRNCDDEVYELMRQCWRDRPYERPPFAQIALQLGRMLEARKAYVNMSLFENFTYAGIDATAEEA

Set 1
Structure (SMILES): Ic1ccc(Nc2nc(NCCN3CCOCC3)nc(N3CCOCC3)n2)cc1
Cell line: HEK293T ATF4-firefly luciferase reporter
Observed: integrated stress response
Refers to: ATF4
Baseline: DMSO
| tested at | notes | together with | reporter signal |
| --- | --- | --- | --- |
| 10 µM | without ISRIB | – | 176% and 148% and 144% and 166% and 137% and 136% and 161% |
| 1 µM | without ISRIB | – | 120% and 108% and 101% and 105% |
| 10 µM | – | ISRIB | 86.5% and 82.4% and 89.1% and 87.7% and 109% and 91.1% and 76.7% and 92.4% |

Set 2
SMILES: CS(=O)(=O)N1CCCC(NC(=O)[C@H](CCC2CCCCC2)NC(=O)c2ccc(CNc3ncnc4c3nnn4-c3ccccc3)cc2)C1 (stereo partly shown)
Observed: cell-free assay
Technique: competition with immobilised ligand
Tested at: 0.1 µM
| target | remaining binding |
| --- | --- |
| KIT (Homo sapiens, UniProt P10721) | 89% |
| STK3 (Homo sapiens, UniProt Q13188) | 95% |
| CDK17 (Homo sapiens, UniProt Q00537) | 86% |
| ACVR1B (Homo sapiens, UniProt P36896) | 94% |
| DAPK3 (Homo sapiens, UniProt O43293) | 88% |
| PIP5K1A (Homo sapiens, UniProt Q99755) | 100% |
| NLK (Homo sapiens, UniProt Q9UBE8) | 100% |
| NTRK2 (Homo sapiens, UniProt Q16620) | 100% |
| ACVR1 (Homo sapiens, UniProt Q04771) | 88% |
| CDK2 (Homo sapiens, UniProt P24941) | 100% |
| HIPK2 (Homo sapiens, UniProt Q9H2X6) | 100% |
| MAP3K19 (Homo sapiens, UniProt Q56UN5) | 92% |
| PIK3C3 (Homo sapiens, UniProt Q8NEB9) | 100% |
| FGFR4 (Homo sapiens, UniProt P22455) | 100% |
| TIE1 (Homo sapiens, UniProt P35590) | 100% |

Set 3
Compound: CC(C)(C(=O)O)[C@H](NC(=O)Cc1cccc(I)c1)c1ccc2oc(=O)[nH]c2c1
Technique: Incucyte 3D growth
Tested at: 30 µM
Reading: higher = more growth
| cell line | time | spheroid area |
| --- | --- | --- |
| A375 | 192 h | 1.01e+08 a.u. and 1.11e+08 a.u. and 1.14e+08 a.u. and 1.16e+08 a.u. and 1.35e+08 a.u. and 1.18e+08 a.u. |
| IPC-298 | 282 h | 4.6e+07 a.u. and 2.68e+07 a.u. and 3.45e+07 a.u. and 3.43e+07 a.u. and 4.11e+07 a.u. and 2.74e+07 a.u. |
| NCI-H358 | 258 h | 1.15e+07 a.u. and 8.98e+06 a.u. and 1.02e+07 a.u. and 1.12e+07 a.u. and 1.03e+07 a.u. |
| MEL-JUSO | 420.52 h | 2.96e+07 a.u. and 2.99e+07 a.u. and 3.93e+07 a.u. and 7.54e+07 a.u. and 4.66e+07 a.u. and 2.82e+07 a.u. |
| IPC-298 | 276 h | 2.63e+07 a.u. and 4.63e+07 a.u. and 4.05e+07 a.u. and 2.62e+07 a.u. and 3.24e+07 a.u. and 3.51e+07 a.u. |

Set 4
Technique: PRP chromatography
Notes: linear fit, 1 mL
| SMILES | logD 1,9-decadiene/water [log units] |
| --- | --- |
| CC(C)C[C@@H]1NC(=O)[C@H](CC(C)C)NC(=O)[C@@H](CC(C)C)NC(=O)[C@H](CC(C)C)NC(=O)[C@@H](CCC(=O)N2CCCC2)NC(=O)[C@H](Cc2cscn2)NC(=O)[C@H](C)NC1=O | -1.33 |
| CC(C)C[C@@H]1NC(=O)[C@H](CC(C)C)NC(=O)[C@H](CC(C)C)NC(=O)[C@@H](C)NC(=O)[C@H](C(C)C)NC(=O)[C@H](C)NC(=O)[C@H](C)NC1=O | -2.32 |
| CC(C)C[C@@H]1NC(=O)[C@H](C(C)C)NC(=O)[C@H](C)NC(=O)[C@@H](CC(C)C)NC(=O)[C@H](C(C)C)NC(=O)[C@H](CC(C)C)NC(=O)[C@@H](CC(C)C)NC1=O | 0.0587 |

Set 5
SMILES: CC(=O)N[C@@H](Cc1c[nH]c2ccccc12)C(=O)N[C@@H](CCC(=O)C=[N+]=[N-])C(=O)OC(C)C
Host: mouse, EL4 tumour-bearing
Matrix: EL4 tumour
Dose: dose not given
Baseline: vehicle
| refers to | log2 fold change |
| --- | --- |
| triethanolamine | 0.231 |
| urea | 0.802 |
| phenol sulfate | 1.49 |
| proline | -0.195 |
| N6-methyllysine | -0.784 |

For quick reference, copied from above (set 3):
| cell line | time | spheroid area |
| --- | --- | --- |
| IPC-298 | 282 h | 4.6e+07 a.u. and 2.68e+07 a.u. and 3.45e+07 a.u. and 3.43e+07 a.u. and 4.11e+07 a.u. and 2.74e+07 a.u. |
| NCI-H358 | 258 h | 1.15e+07 a.u. and 8.98e+06 a.u. and 1.02e+07 a.u. and 1.12e+07 a.u. and 1.03e+07 a.u. |
| MEL-JUSO | 420.52 h | 2.96e+07 a.u. and 2.99e+07 a.u. and 3.93e+07 a.u. and 7.54e+07 a.u. and 4.66e+07 a.u. and 2.82e+07 a.u. |
| IPC-298 | 276 h | 2.63e+07 a.u. and 4.63e+07 a.u. and 4.05e+07 a.u. and 2.62e+07 a.u. and 3.24e+07 a.u. and 3.51e+07 a.u. |
